Results collected from several papers.
A part holds a random share of what one study measured. Changes are numbered by the printed parent chain.

Series 1 — target: CCND3, cyclin fold, Cln2 fusion (human); technique: yeast growth competition, sequencing; sample: yeast; notes: weak parent motif; relative to: not given; direction: higher = stronger binding
Starting sequence: BRCA2 docking peptide (human); PSIKRNLLNEFDR; partner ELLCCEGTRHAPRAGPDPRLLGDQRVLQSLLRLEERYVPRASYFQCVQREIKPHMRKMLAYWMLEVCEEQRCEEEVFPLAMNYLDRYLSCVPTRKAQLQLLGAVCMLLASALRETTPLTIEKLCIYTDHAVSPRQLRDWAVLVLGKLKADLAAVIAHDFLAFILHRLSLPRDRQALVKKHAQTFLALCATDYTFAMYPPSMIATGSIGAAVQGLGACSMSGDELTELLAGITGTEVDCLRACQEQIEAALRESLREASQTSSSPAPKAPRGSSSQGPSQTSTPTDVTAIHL
`D12Q`: “normalised enrichment score” 0.143.
Under “normalised enrichment score”, `E10V` is recorded as 0.11.
`L7F`: “normalised enrichment score” 0.0934.
`R5E`: “normalised enrichment score” 0.121.
Under “normalised enrichment score”, `E10P` is recorded as 0.129.
For `E10A`, “normalised enrichment score” read 0.0499.
For `N6I`, “normalised enrichment score” read 0.106.
`K4V` — result for “normalised enrichment score”: 0.136.
`S2M` — result for “normalised enrichment score”: 0.136.
Under “normalised enrichment score”, `F11I` is recorded as 0.185.
For `D12G`, “normalised enrichment score” read 0.2.
Under “normalised enrichment score”, `F11D` is recorded as 0.155.
`P1M` — result for “normalised enrichment score”: -0.0255.
For `P1Q`, “normalised enrichment score” read 0.191.
`F11G` — result for “normalised enrichment score”: 0.193.
`P1V` — result for “normalised enrichment score”: 0.143.
`S2T`: “normalised enrichment score” 0.161.

Series 2 — technique: universal PBM; molecule type: double-stranded DNA, one strand shown; sample: in vitro; tested at: not given; direction: higher = stronger binding
Target: Sal-like protein 4, full length isoform B (SALL4, Homo sapiens, UniProt Q9UJQ4-2, residues 1-616)
Notes: 8-mer, flanks averaged, mean of replicates
Residues (chain): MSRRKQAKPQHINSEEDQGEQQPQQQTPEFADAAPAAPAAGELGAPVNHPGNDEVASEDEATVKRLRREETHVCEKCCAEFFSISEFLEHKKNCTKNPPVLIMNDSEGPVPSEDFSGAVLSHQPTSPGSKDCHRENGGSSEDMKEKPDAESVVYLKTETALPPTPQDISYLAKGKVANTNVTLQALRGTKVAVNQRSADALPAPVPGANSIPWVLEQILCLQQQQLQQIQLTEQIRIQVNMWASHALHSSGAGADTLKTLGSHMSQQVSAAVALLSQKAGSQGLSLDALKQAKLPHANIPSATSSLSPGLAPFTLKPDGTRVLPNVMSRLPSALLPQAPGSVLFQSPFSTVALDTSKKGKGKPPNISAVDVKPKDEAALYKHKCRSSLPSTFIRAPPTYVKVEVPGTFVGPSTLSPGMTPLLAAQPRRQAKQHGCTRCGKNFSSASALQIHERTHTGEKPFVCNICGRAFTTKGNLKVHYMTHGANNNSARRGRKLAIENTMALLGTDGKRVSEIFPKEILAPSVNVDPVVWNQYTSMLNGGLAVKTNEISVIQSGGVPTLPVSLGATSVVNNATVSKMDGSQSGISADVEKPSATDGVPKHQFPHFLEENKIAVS
With `CGGCCGTC` the E-score was -0.354.
`CATCCCTC` gave an E-score of -0.179.
`ACTGACGC` has an E-score of -0.196.
For `ACCACTTA`, the E-score was 0.0579.
For `TACTGACA`, the E-score was 0.0772.
For `CCCTTACA`, the E-score was 0.0921.
With `AGTAGGTC` the E-score was -0.158.
The E-score of `GAGGTCAA` is reported as -0.0713.
The E-score of `CGTTTGTC` is reported as -0.0345.
With `ACGGCGCT` the E-score was -0.306.
`AGGCAAGA` has an E-score of 0.0895.
`ACATTGTC` has an E-score of 0.154.
`ATAGCGTC` has an E-score of -0.0101.
With `GTTATTGA` the E-score was 0.339.
`AGAACCCG` has an E-score of -0.237.
`CAGTGGTA` has an E-score of -0.0944.

Series 3 — technique: RNA Bind-n-Seq; molecule type: RNA; sample: in vitro; tested at: 200 nM; notes: whole 134-nt RNA, ends assumed; added: 150 mM KCl; relative to: input library; direction: higher = stronger binding
Target: Ras GTPase-activating protein-binding protein 1, full length (G3BP1, Homo sapiens, UniProt Q13283)
Chain of UniProt Q13283 (whole entry, looked up): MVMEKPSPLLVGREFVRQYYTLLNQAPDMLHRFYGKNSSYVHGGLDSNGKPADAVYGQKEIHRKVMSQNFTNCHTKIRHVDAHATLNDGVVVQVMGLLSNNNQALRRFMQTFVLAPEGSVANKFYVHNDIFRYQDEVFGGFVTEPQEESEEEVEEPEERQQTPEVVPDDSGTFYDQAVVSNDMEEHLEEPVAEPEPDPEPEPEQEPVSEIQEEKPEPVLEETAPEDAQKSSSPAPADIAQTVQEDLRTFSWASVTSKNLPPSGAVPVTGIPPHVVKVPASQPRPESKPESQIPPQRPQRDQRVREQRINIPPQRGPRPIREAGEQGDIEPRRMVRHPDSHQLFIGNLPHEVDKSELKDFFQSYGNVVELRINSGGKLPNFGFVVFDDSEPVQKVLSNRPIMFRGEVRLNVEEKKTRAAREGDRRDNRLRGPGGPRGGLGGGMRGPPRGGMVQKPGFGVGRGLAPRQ
For `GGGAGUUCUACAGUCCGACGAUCCCUGUGCUACACAUCGUAUGUACCGAAUCGGGAAAAAAGGGAAAAAAGGGGAAAAAAGGGGAAAGUAUUAUGUUACGCCGUUCGGAUCUGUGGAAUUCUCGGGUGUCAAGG`, the log2 enrichment was -0.367.
The log2 enrichment of `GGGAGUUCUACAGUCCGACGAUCCUGUGCUACACAUCGUAUGUACCGAAUCGGUUUUUUUGGUUUUUUUGGGGUUUUUUUGGGGAAAGUAUUAUGUUACGCCGUUCGGAUCUGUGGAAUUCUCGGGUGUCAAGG` is reported as -1.05.
The log2 enrichment of `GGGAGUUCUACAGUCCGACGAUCACCAUGCAGGUGGGCAUCUUUGGGAAGUGGGGCAAGGGGGGGAUAGGGGGGGGGGUAACACUUUGGGAACAGGUGGUCCCAGGUCGUUUCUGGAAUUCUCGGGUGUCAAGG` is reported as 1.24.
`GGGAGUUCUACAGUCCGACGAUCCCUGUGCUACACAUCGUAUGUACCGAAUCAAAUUUUUUUAAAUUUUUAAACCCCCCCAAAAAAGUAUUAUGUUACGCCGUUCGGAUCUGCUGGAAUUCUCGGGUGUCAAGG` gave a log2 enrichment of 0.0415.
The log2 enrichment of `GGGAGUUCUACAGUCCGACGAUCCUGUGCUACACAUCGUAUGUACCGAAUCGGGGUUUUUUUGGGGUUUUUUUGGGUUUUUUUGGAAAGUAUUAUGUUACGCCGUUCGGAUCUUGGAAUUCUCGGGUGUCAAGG` is reported as -0.678.
The log2 enrichment of `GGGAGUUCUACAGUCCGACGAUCCUGUGCUACACAUCGUAUGUACCGAAUCGGGGUUUUUGGGGUUUUUUUGGGGAAAAAGGGGAAAGUAUUAUGUUACGCCGUUCGGAUCUGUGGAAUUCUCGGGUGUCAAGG` is reported as -0.313.
`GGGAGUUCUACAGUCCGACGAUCCAAGUCCUGUGCUACACAUCGUAUGUACCGAAUCGGGGAAAGGGAAAGGGAAAGGAAAGUAUUAUGUUACGCCGUUCGGAUCUGCACUUCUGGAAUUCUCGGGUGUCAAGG` gave a log2 enrichment of -0.136.
`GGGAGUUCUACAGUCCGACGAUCUGUGCUACACAUCGUAUGUACCGAAUCGGGCCCCCCCGGGGCCCCCCCGGGGCCCCCCCGGGGAAAGUAUUAUGUUACGCCGUUCGGAUCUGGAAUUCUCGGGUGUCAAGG` gave a log2 enrichment of -1.97.
With `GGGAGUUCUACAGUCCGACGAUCCUCAAGUCCUGUGCUACACAUCGUAUGUACCGAAUCGGAGGUUUGGUUUUUGGAAAGUAUUAUGUUACGCCGUUCGGAUCUGCACUUCCAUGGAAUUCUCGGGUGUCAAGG` the log2 enrichment was -0.388.
`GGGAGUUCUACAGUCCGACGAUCCCUCAAGUCCUGUGCUACACAUCGUAUGUACCGAAUCGGGGUGGUGGGGUGGAAAGUAUUAUGUUACGCCGUUCGGAUCUGCACUUCCAGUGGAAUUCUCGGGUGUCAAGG` has a log2 enrichment of 0.566.

Series 4 — technique: RNA Bind-n-Seq; molecule type: RNA; sample: in vitro; tested at: 365 nM; relative to: no-protein control; direction: higher = stronger binding
Target: RNA binding protein fox-1 homolog 2, RRM domain, GST-SBP tag (RBFOX2, Homo sapiens, UniProt O43251-10, residues 100-194)
Notes: natural RNA segment, single round, ends assumed
Construct (chain): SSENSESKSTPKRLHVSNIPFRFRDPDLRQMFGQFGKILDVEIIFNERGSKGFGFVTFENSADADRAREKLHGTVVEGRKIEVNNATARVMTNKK
For `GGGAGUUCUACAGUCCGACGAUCAGAAACGACCCUGGCCAAUGUCAACGCAGAGCCGAGGCGGUGUUGUCACGGCUAAUGUGAAAUCUCUUCCCGUGGCGCCCAUCCUCUGACUCUGCAGUGCCAGCUUGGACUGGAAUUCUCGGGUGCCAA`, “RBNS enrichment (R)” read 0.324.
`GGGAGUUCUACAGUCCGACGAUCAUAUUUUUCUGCAUACAAAUUUAUGAAGCUGGAGUCUACCAAACACAGCUUUAGUCACAAAAGUUAGUUUAGUUAUCUCAUUUCGCUUGGAGAUGGAAUUUCAGGAAGGGUGGAAUUCUCGGGUGCCAA`: “RBNS enrichment (R)” 15.2.
`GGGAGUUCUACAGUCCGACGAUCGGAAAAUUGGUGGAAAAUGCUUUUUGGGGUUACAAUUAUAUCAUUUUUAAGUGUUGAUGCUUUGUAGUACUACAAAGCUAAAUUGUGCAAACAAAACAUAUUUAACAGAGUGGAAUUCUCGGGUGCCAA`: “RBNS enrichment (R)” 0.313.
`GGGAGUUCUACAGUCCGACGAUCCUUUAAAAAAAUUUUCUGCAUAGGUUAUAUCCCAGACCACUUAAAUCAGAAUAUCUUGGAUGGAACCCAGACAUCAGAUUAUUGUAUUUUCCCCCAUAAUUUAAAGUUCAUGGAAUUCUCGGGUGCCAA`: “RBNS enrichment (R)” 0.775.
For `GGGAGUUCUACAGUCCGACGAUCGAUUCAUCUACUAACAAAUUCAAAUUAAACCUUCACAUAGUAGGAGACUUUGUAGACUACUAUAAAGACCAUCCUGAGCCAGACCUGCAGUCAACAGCAAGAGCAAGAAGUGGAAUUCUCGGGUGCCAA`, “RBNS enrichment (R)” read 0.325.
For `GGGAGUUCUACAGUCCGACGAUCAGUAGGGCCUGGGACCCCGAAUGUGAAUAUAACGUAGCAUCUUCGCUGGCUAUGGCCGUGCACUCCCCGUCCUGUCCACUUCUGAAACUCUUGUUCCUAACGACAACGUGUGGAAUUCUCGGGUGCCAA`, “RBNS enrichment (R)” read 0.544.
`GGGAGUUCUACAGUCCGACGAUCUACUGGAUGAGCAAGGAGCAUGCUUCCUUUGGGACAUUCUUACAGCAGGGUGUCUCUCCAACAGCCCGACAGGCCUCAUCUUUUUGGUUGGAUACCUUUGAACUCCAUGGUGGAAUUCUCGGGUGCCAA`: “RBNS enrichment (R)” 2.68.
For `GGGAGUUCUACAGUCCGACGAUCGCAACCUCCCAUUUUAGAUGUUUAAAGGACCCUAUAUGUGGCAUUCCUUUCUUUAAACUAUAGGUAAUUAAGGCAGCUGAAAAGUAAAUUGCCUUCUAGACACUGAAGGCUGGAAUUCUCGGGUGCCAA`, “RBNS enrichment (R)” read 0.561.
Under “RBNS enrichment (R)”, `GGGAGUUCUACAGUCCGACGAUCUCCCAAGAUCCUGGGGAAAGGAGAGACCAUGGUGUGAAUGUAGAGAUGCCACCUCCCUCUCUCUGAGGCAGGCCUGUGGAUGAAGGAGGAGGGUCAGGGCUGGCCUUCCUUGGAAUUCUCGGGUGCCAA` is recorded as 1.1.
For `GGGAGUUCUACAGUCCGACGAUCCUAGCAUCUGGAGACCGAAUAUCCCCAUGCUCAGAAGUAAAGUGACAAUCAGAACCAGGUACAAGCCAGUAAAGCGGCAGAUGACUGCCACUCAGCCCACAUACGGCAUUUGGAAUUCUCGGGUGCCAA`, “RBNS enrichment (R)” read 0.302.
`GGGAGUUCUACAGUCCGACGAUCACAUUUUAGGGGCAUGGUUAAUACCUGAGAUUUUUACUCAGUAAAUCCUGAUGGUUACUGUGUGUAAAAUAUCUUUAAGUAGGAUUGAAGGCCUCUGUGGGGGAAUAAAAUGGAAUUCUCGGGUGCCAA` — result for “RBNS enrichment (R)”: 0.593.
`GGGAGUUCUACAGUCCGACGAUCGGAAGGGGCCCUGAAGAUUAAGCUUCCUUAGCGUCACAAUAAGUCCGUAUCUGGUUGCAAUUGAAAACUGAUGCUUCAGUGAGGGUAUCUAAAAAGGUAAACUGGCAUAUUGGAAUUCUCGGGUGCCAA`: “RBNS enrichment (R)” 0.467.

Repeated from above (series 3):
The log2 enrichment of `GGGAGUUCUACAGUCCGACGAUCACCAUGCAGGUGGGCAUCUUUGGGAAGUGGGGCAAGGGGGGGAUAGGGGGGGGGGUAACACUUUGGGAACAGGUGGUCCCAGGUCGUUUCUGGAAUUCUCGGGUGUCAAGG` is reported as 1.24.
`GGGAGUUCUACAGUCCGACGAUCCCUGUGCUACACAUCGUAUGUACCGAAUCAAAUUUUUUUAAAUUUUUAAACCCCCCCAAAAAAGUAUUAUGUUACGCCGUUCGGAUCUGCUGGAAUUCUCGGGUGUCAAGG` gave a log2 enrichment of 0.0415.
The log2 enrichment of `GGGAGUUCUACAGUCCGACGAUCCUGUGCUACACAUCGUAUGUACCGAAUCGGGGUUUUUUUGGGGUUUUUUUGGGUUUUUUUGGAAAGUAUUAUGUUACGCCGUUCGGAUCUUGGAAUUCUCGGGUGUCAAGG` is reported as -0.678.
The log2 enrichment of `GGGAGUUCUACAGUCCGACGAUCCUGUGCUACACAUCGUAUGUACCGAAUCGGGGUUUUUGGGGUUUUUUUGGGGAAAAAGGGGAAAGUAUUAUGUUACGCCGUUCGGAUCUGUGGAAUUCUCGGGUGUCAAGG` is reported as -0.313.
